{"data": "Published values pooled from the literature", "note": "Protocols differ between the studies behind these lines. “And” joins repeats or separate records; there may be more than shown. ± marks the error that the study gave."}
{"SMILES": "CC[C@H](C)[C@H](NC(=O)[C@H](CCCCN)NC(=O)CNC(=O)[C@H](CC(C)C)NC(=O)[C@H](Cc1ccccc1)NC(=O)[C@H](CCCCN)NC(=O)[C@H](CO)NC(=O)[C@H](Cc1ccccc1)NC(=O)[C@H](Cc1c[nH]c2ccccc12)NC(=O)[C@H](CCC(N)=O)NC(=O)[C@@H](NC(=O)[C@H](Cc1ccccc1)NC(=O)CCCCCNC(=O)CN1CCN(CC(=O)O)CCN(CC(=O)O)CCN(CC(=O)O)CC1)C(C)C)C(=O)N[C@@H](CCC(=O)O)C(=O)N1CCC[C@H]1C(=O)N[C@@H](CC(=O)O)C(=O)N[C@H](C(=O)N[C@@H](CO)C(=O)N[C@@H](CCC(N)=O)C(=O)N[C@H](C(=O)N[C@@H](CCC(N)=O)C(=O)N[C@@H](CC(=O)O)C(=O)N1CCC[C@H]1C(=O)N[C@@H](CC(N)=O)C(=O)N[C@@H](CC(=O)O)C(=O)N[C@@H](CCC(N)=O)C(=O)N[C@@H](Cc1ccc(O)cc1)C(=O)N[C@@H](CCC(=O)O)C(=O)N1CCC[C@H]1C(=O)N[C@@H](Cc1ccccc1)C(=O)O)C(C)C)C(C)C [copper-64 labelled]", "assay": "dynamic PET", "system": "mouse both sexes, CT26 tumour, checkpoint inhibitor-treated, tumour", "setting": "intravenous, 100 µCi/mouse, 110 s", "measurement": "SUVmean", "result": "2.77 SUV"}
{"SMILES": "CC(C)=CCC/C(C)=C\\CCn1cc(CC(P(=O)(O)O)P(=O)(O)O)nn1", "system": "CD-1 mice, pooled bile", "setting": "intravenous, 0.3 mg/kg, 24 h", "measurement": "bile concentration", "result": "not detected"}
{"SMILES": "O=C1NC2(CC2)COc2ncc(F)cc2[C@H]2COCCN2c2ccn3ncc1c3n2", "system": "Sprague-Dawley rat, female, serum", "setting": "oral, 2.5 mg/kg/day, 4 weeks daily, end of treatment", "measurement": "albumin", "result": "37.8 ± 2.7 g/L"}
{"SMILES": "CC(C)C[C@@H](NC(=O)[C@@H](CCCNC(=N)N)NC(=O)[C@@H](Cc1c[nH]cn1)NC(=O)[C@@H](Cc1c[nH]c2ccccc12)NC(=O)[C@@H](Cc1c[nH]cn1)NC(=O)[C@@H](Cc1ccccc1)NC(=O)[C@H](NC(=O)[C@@H](Cc1ccc(O)cc1)NC(=O)CNC(=O)CNC(=O)CCOCCOCCOCCNC(=O)CN1CCN(CC(=O)O)CCN(CC(=O)O)CC1)[C@H](C)O)C(=O)N[C@H](CC(N)=O)C(=O)N1CCC[C@@H]1C(=O)O [gallium-68 labelled]", "assay": "gamma counting", "system": "C57BL/6 mice, male, intestines", "setting": "intravenous, 1.85 MBq, 60 min", "measurement": "tissue uptake", "result": "1.06 ± 0.31 %ID/g"}
{"SMILES": "CSCC[C@H](NC(=O)CNC(=O)[C@H](CCCCN)NC(=O)[C@H](CC(C)C)NC(=O)[C@@H]1CCCN1C(=O)[C@H](CO)NC(=O)[C@H](Cc1c[nH]cn1)NC(=O)[C@H](Cc1c[nH]c2ccccc12)NC(=O)[C@H](CCCNC(=N)N)NC(=O)[C@H](CC(C)C)NC(=O)[C@H](CCCNC(=N)N)NC(=O)[C@H](Cc1c[nH]c2ccccc12)NC(=O)[C@H](CS)NC(=O)CCCCCNC(=O)CN1CCN(CC(=O)O)CCN(CC(=O)O)CCN(CC(=O)O)CC1)C(=O)O [copper-64 labelled]", "system": "BALB/c nude mouse, Huh-7 tumour, tumour and blood", "setting": "intravenous, 1.85 MBq, 18 h, ex vivo biodistribution", "scale": "reference: tumour over blood", "measurement": "tumour-to-blood ratio", "result": 6.67}
{"SMILES": "CC[C@H](C)[C@@H](C(=O)N[C@@H](CC(C)C)C(=O)N[C@@H](CO)C(=O)N[C@@H](CO)C(=O)N[C@H](C(=O)N[C@@H](CCC(=O)O)C(=O)N[C@H](C(=O)NCC(=O)N[C@@H](CO)C(=O)N[C@@H](CC(N)=O)C(=O)N[C@H](C(=O)N1C[C@H](O)C[C@H]1C(N)=O)[C@@H](C)O)C(C)C)[C@@H](C)O)N(C)C(=O)[C@H](C)NC(=O)CN(C)C(=O)[C@H](Cc1ccccc1)NC(=O)[C@H](CO)NC(=O)[C@H](CO)NC(=O)[C@H](CCCNC(=N)N)NC(=O)[C@H](CCC(N)=O)NC(=O)[C@H](CC(C)C)NC(=O)[C@H](Cc1ccccc1)NC(=O)[C@H](Cc1c[nH]cn1)NC(=O)[C@H](C)NC(=O)[C@H](CC(C)C)NC(=O)[C@H](CCCNC(=N)N)NC(=O)[C@H](CCC(=O)O)NC(=O)[C@@H](NC(=O)[C@H](C)NC(=O)[C@@H]1CCCCn2cc(nn2)C[C@H](NC(=O)[C@H](CCCNC(=N)N)NC(=O)CC[C@H](NC(=O)CCCCCCCCCCCCCCCCCCC(=O)O)C(=O)O)C(=O)NCC(=O)N[C@@H]([C@@H](C)O)C(=O)N[C@@H](C)C(=O)N[C@@H]([C@@H](C)O)C(=O)N1)[C@@H](C)O", "assay": "RP-HPLC", "system": "water", "setting": "1.0 mg/mL, 7 days, pH 6.0, 40 °C", "measurement": "main peak area remaining", "result": "98%"}
{"SMILES": "CC[C@H](C)[C@H](NC(=O)[C@H](C)NC(=O)[C@H](CCCCN)NC(=O)[C@H](CCCCN)NC(=O)[C@@H](N)CCCNC(=N)N)C(=O)N[C@@H](CCCCN)C(=O)N[C@@H](CC(C)C)C(=O)N[C@H](C(=O)N[C@@H](CCCCN)C(=O)N[C@@H](CCCCN)C(=O)N[C@@H](CC(C)C)C(=O)N[C@H](C(=O)N[C@@H](CCCCN)C(=O)N[C@@H](CCCCN)C(=O)N[C@@H](CC(C)C)C(=O)N[C@@H](CCCCN)C(=O)N[C@@H](CCCCN)C(=O)N[C@@H](C)C(=O)N[C@@H](CC(C)C)C(=O)N[C@@H](CCCCN)C(=O)O)C(C)C)C(C)C", "system": "human red blood cells", "setting": "16 mg/L, 1 h", "measurement": "hemolysis", "result": "2.19% and 1.29% and 2.78%"}
{"SMILES": "COc1ccc(CNc2ccc3c(c2)S(=O)(=O)C=C3)cc1", "system": "male C57BL/6 mice, blood", "setting": "intraperitoneal, 5 mg/kg, day 8, group average", "measurement": "red cell distribution width SD", "result": "29.9 fL"}
{"SMILES": "CC(C)[C@@H]1NC(=O)CNC(=O)[C@H](CC(N)=O)NC(=O)[C@H](CCCNC(=N)N)NC(=O)[C@H](Cc2ccc(O)cc2)NC(=O)[C@H](C(C)C)NC(=O)[C@@H](NC(=O)[C@@H](NC(=O)[C@H](CC(N)=O)NC(=O)[C@H](Cc2c[nH]c3ccccc23)NC(=O)[C@H](C)NC(=O)[C@H](Cc2ccccc2)NC(=O)CNC(=O)[C@H](CCCCN)NC(=O)[C@H](Cc2ccccc2)NC(=O)[C@H](Cc2ccccc2)NC(=O)[C@H](CCCCN)NC(=O)OCC2c3ccccc3-c3ccccc32)C(C)C)CSSC[C@@H](C(=O)N[C@@H](Cc2c[nH]cn2)C(=O)N[C@@H](CCCNC(=N)N)C(=O)N[C@@H](CCCNC(=N)N)C(=O)N[C@@H](C)C(=O)N[C@@H](CC(N)=O)C(N)=O)NC(=O)[C@H](C(C)C)NC(=O)[C@H](CCCNC(=N)N)NC1=O", "system": "ICR mouse", "setting": "ip, 10 mg/kg", "scale": "direction not given", "measurement": "group interaction score", "result": 0}
{"SMILES": "CCCCCCCCCCCCCCCC(=O)N[C@@H](CCC(=O)NCCOCCOCCC(=O)NCCOCCOCCC(=O)NCCCC[C@H](NC(=O)[C@H](CC(=O)O)NC(=O)[C@H](CC(C)C)NC(=O)[C@H](Cc1ccc(O)cc1)NC(=O)[C@H](CCCCN)NC(=O)[C@H](CO)NC(=O)[C@H](Cc1ccc(O)cc1)NC(=O)[C@H](CC(=O)O)NC(=O)[C@H](CO)NC(=O)[C@@H](NC(=O)[C@H](Cc1ccccc1)NC(=O)[C@@H](NC(=O)CNC(=O)[C@H](CCC(N)=O)NC(=O)[C@@H](CO)NC(=O)[C@@H](N)Cc1c[nH]cn1)[C@@H](C)O)[C@@H](C)O)C(=O)N[C@@H](CCCNC(=N)N)C(=O)N[C@@H](CCCNC(=N)N)C(=O)N[C@@H](C)C(=O)N[C@@H](CCC(N)=O)C(=O)N[C@@H](CC(=O)O)C(=O)N[C@@H](Cc1ccccc1)C(=O)N[C@H](C(=O)N[C@@H](CCC(N)=O)C(=O)N[C@@H](Cc1c[nH]c2ccccc12)C(=O)N[C@@H](CC(C)C)C(=O)N[C@@H](CC(C)C)C(=O)N[C@@H](CC(N)=O)C(=O)N[C@H](C(=O)NCC(=O)NCC(=O)N1CCC[C@H]1C(=O)N[C@@H](CO)C(=O)N[C@@H](CO)C(=O)NCC(=O)N[C@@H](C)C(=O)N1CCC[C@H]1C(=O)N1CCC[C@H]1C(=O)N1CCC[C@H]1C(=O)N[C@@H](CO)C(N)=O)[C@@H](C)O)C(C)C)C(=O)O", "assay": "measured: AST", "system": "rhesus monkey, female", "setting": "subcutaneous, 20 µg/kg once daily, 28 days", "measurement": "serum enzyme activity", "result": "37.1 ± 5.9 U/L"}
{"SMILES": "CC(C)NCCCn1c(Sc2cc3c(cc2I)OCO3)nc2c(N)ncnc21", "assay": "LC-MS/MS", "system": "mouse, MDA-MB-468 xenograft, tumour", "setting": "50 mg/kg single dose, 24 h", "measurement": "tumour concentration", "result": "3.6 µM"}
{"SMILES": "CC[C@H](C)[C@H](NC(=O)[C@H](C)NC(=O)CNC(=O)[C@H](CCCCN)NC(=O)[C@@H](NC(=O)[C@H](CC(C)C)NC(=O)[C@H](C)NC(=O)CNC(=O)[C@H](CC(C)C)NC(=O)[C@@H](N)Cc1ccccc1)[C@@H](C)CC)C(=O)N[C@@H](Cc1c[nH]cn1)C(=O)NCC(=O)NCC(=O)N[C@@H](CCCNC(=N)N)C(=O)N[C@@H](Cc1ccccc1)C(=O)N[C@H](C(=O)N[C@@H](Cc1c[nH]cn1)C(=O)NCC(=O)N[C@@H](CCSC)C(=O)N[C@H](C(=O)N[C@@H](CCC(N)=O)C(=O)N[C@@H](CC(N)=O)C(=O)N[C@@H](Cc1c[nH]cn1)C(=O)N[C@@H](Cc1c[nH]cn1)C(N)=O)[C@@H](C)CC)[C@@H](C)CC", "system": "zebrafish embryos 28 hpf, E3 medium", "setting": "24 h", "measurement": "chronic toxic concentration", "result": "25 µM"}
{"note": "Repeated from above:"}
{"SMILES": "CC[C@H](C)[C@@H](C(=O)N[C@@H](CC(C)C)C(=O)N[C@@H](CO)C(=O)N[C@@H](CO)C(=O)N[C@H](C(=O)N[C@@H](CCC(=O)O)C(=O)N[C@H](C(=O)NCC(=O)N[C@@H](CO)C(=O)N[C@@H](CC(N)=O)C(=O)N[C@H](C(=O)N1C[C@H](O)C[C@H]1C(N)=O)[C@@H](C)O)C(C)C)[C@@H](C)O)N(C)C(=O)[C@H](C)NC(=O)CN(C)C(=O)[C@H](Cc1ccccc1)NC(=O)[C@H](CO)NC(=O)[C@H](CO)NC(=O)[C@H](CCCNC(=N)N)NC(=O)[C@H](CCC(N)=O)NC(=O)[C@H](CC(C)C)NC(=O)[C@H](Cc1ccccc1)NC(=O)[C@H](Cc1c[nH]cn1)NC(=O)[C@H](C)NC(=O)[C@H](CC(C)C)NC(=O)[C@H](CCCNC(=N)N)NC(=O)[C@H](CCC(=O)O)NC(=O)[C@@H](NC(=O)[C@H](C)NC(=O)[C@@H]1CCCCn2cc(nn2)C[C@H](NC(=O)[C@H](CCCNC(=N)N)NC(=O)CC[C@H](NC(=O)CCCCCCCCCCCCCCCCCCC(=O)O)C(=O)O)C(=O)NCC(=O)N[C@@H]([C@@H](C)O)C(=O)N[C@@H](C)C(=O)N[C@@H]([C@@H](C)O)C(=O)N1)[C@@H](C)O", "assay": "RP-HPLC", "system": "water", "setting": "1.0 mg/mL, 7 days, pH 6.0, 40 °C", "measurement": "main peak area remaining", "result": "98%"}
